Published values of several laboratories.
Values joined by “and” are separate records of one study, mostly repeats; a detail may differ. ± marks the error that the study gave.

`CC1(C)Oc2ccc(CC3=C(c4ccc(O)cc4)C(=O)OC3=O)cc2CC1O` (stereo not shown): “nitric oxide production decrease” roughly 35% (RPTEC; Griess; 10 µg/mL, 24 h, together with: LPS 1 µg/mL; relative to: LPS-treated cells).
For `Nc1cccc2c1C(=O)N(C1CCC(=O)NC1=O)C2=O` (stereo not shown), the relative viability was 1 (bone marrow CD138+ myeloma cells; XTT; human; 0.2 µM; relative to: untreated).
`Cn1cc(Nc2nccc(-c3ccc4c(c3)CN(C3COC3)CC[C@H]4NC(=O)c3cn(C(C)(C)C)nn3)n2)cn1` — result for “pathway activation z-score”: 0.832 (mouse splenic B cells; refers to: apelin Adipocyte signalling pathway; 30 mg/kg, IgD-activated in vivo; relative to: vehicle, direction not given).
Under “phospho-Src family Tyr416/total ratio”, `CSc1cc(Oc2ccnc3[nH]c(=O)cnc23)ccc1NC(=O)Nc1cc(C(C)(C)C)nn1-c1ccccc1` is recorded as 0.23 (patient-derived cell line clone B; RPPA; 1 µM, 4 h; relative to: DMSO).
For `CC/C(=N\NC(=O)NCc1cccc(O)c1)c1ccc(O)c(C)c1O`, “YAP protein level” read 0.88 ± 0.44 (SK-OV-3; Western blot; 3D culture in gellan gum; 10 µM, 1 h, unit not given; relative to: β-actin).
`O=C(O)CN(c1ccc(N(CC(=O)O)S(=O)(=O)c2cc3c(cc2Cl)OCCO3)c2ccccc12)S(=O)(=O)c1cc2c(cc1Cl)OCCO2`: “Ho-1 and Nqo1 up-regulation” “decreased” (BV-2, Nrf2 knockdown; refers to: Ho-1, Nqo1; 10 µM; relative to: control BV-2 cells).
`CCOc1cc(-c2nnc(C)n2C)ccc1Nc1ncc2cc(C)nc(NCC(C)(C)C)c2n1` gave a GI50 of 42 nM (CAL-51; cell growth; 72 h).
For `O=c1[nH]nc(OCCCc2ccc(Cl)cc2)c(NCc2cccnc2)c1Br`, “normalized enrichment score” read -1.45 (HEK-293T; RNA-seq GSEA, refers to: Hallmark allograft rejection; concentration not given; direction not given).
For `O=P1(C2CCCCC2)CCCCC1`, “late apoptotic cells” read 3.45% (PC-3; Annexin V-FITC/PI flow cytometry; IC50, 72 h).
For `Cc1cc(OCc2nnc(SC3CCCC3)n2-c2cccnc2)ccc1-c1ccc(S(C)(=O)=O)cc1`, the inhibition was 93.8% (BT-16; cell viability, MTT; 10 µM, 72 h).
For `Cn1cc(-c2ccc(-c3cncc(Cl)c3N3CCC4(CCNC4=O)CC3)cc2)cn1`, “log2 fold change” read 3.17 (COLO 205; gene expression, microarray, refers to: CDH11 mRNA; concentration not given, 2 h; relative to: untreated cells).
For `CCc1cnn2c(NCc3ccc[n+]([O-])c3)cc(N3CCCC[C@H]3CCO)nc12`, the inhibition was 89.4% (BT-16; cell viability, MTT; 10 µM, 72 h).
The IC50 of `Cc1c(C)c2c(c(C)c1O)CCC(C)(COc1ccc(CC3SC(=O)NC3=O)cc1)O2` (stereo not shown) is reported as 43000 nM (iPSC-derived hepatocytes B2; cell viability; 48 h, differentiation day 23).
The inhibition of `CO[C@@]12[C@H](COC(N)=O)C3=C(C(=O)C(C)=C(N)C3=O)N1C[C@@H]1N[C@@H]12` is reported as 92.9% (BT-16; cell viability, MTT; 10 µM, 72 h).
For `Cc1nn(-c2nc3c(F)cc(F)cc3s2)c(O)c1C(c1ccc(C(F)(F)F)cc1)c1c(C)nn(-c2nc3c(F)cc(F)cc3s2)c1O`, “phospho-IRF3 to IRF3 ratio” read 0.512 and 0.959 and 0.708 (RAW-ISG; western blot; 5 µM, together with: HT-DNA; relative to: DMSO).
`CCc1cnc(N2CCC(c3nc(COc4ccc(-n5cnnn5)cc4)cs3)CC2)nc1` — result for “normalized enrichment score”: 1.14 (HEK-293T; RNA-seq GSEA, refers to: HALLMARK_COAGULATION; concentration not given; direction not given).
Under “surface marker level”, `Cc1cccc(-c2[nH]c(CNc3ccccc3F)nc2-c2ccc3ncnn3c2)n1` is recorded as 58.3% (RPMI-8226; flow cytometry, refers to: CD61; concentration not given; relative to: comparator compound alone).
The inhibition of `Nc1nc(Nc2ccc(S(N)(=O)=O)cc2)nn1C(=O)c1c(F)cccc1F` is reported as 92.1% (BT-16; cell viability, MTT; 10 µM, 72 h).
`CC(C)(C)NC(=O)[C@@H]1CN(Cc2cccnc2)CCN1C[C@@H](O)C[C@@H](Cc1ccccc1)C(=O)N[C@H]1c2ccccc2C[C@H]1O`: maximal efficacy “inactive” (ΔE-expressing cells; ΔE mislocalization, high-content imaging).
`COc1cc2ncnc(Nc3ccc(Oc4ccccc4)c(C)c3C)c2cc1OC.Cl` — result for “Bliss synergy score”: -25.7% (MeWo (NF1 mutant); cell viability; concentration not given, 72 h, together with: trametinib; direction not given).
`COc1cc(/C=C/C(=O)N2CCC=CC2=O)cc(OC)c1OC` has a mRNA level of 82.1 ± 8.3% (MDA-MB-468; quantitative RT-PCR, refers to: ANPEP; 30 µM, 8 h; relative to: untreated cells).
With `CNC(=O)c1ccccc1Sc1ccc2c(N)n[nH]c2c1` the GI50 was 1300 nM (Ba/F3 TEL-VEGFR1; cell growth, CCK-8).
`COC(=O)N[C@@H](C)CNc1nccc(-c2cn(C(C)C)nc2-c2cc(Cl)cc(NS(C)(=O)=O)c2F)n1` gave an IC75 of 37 nM (SK-MEL-239 (BRAF V600E); ERK phosphorylation, Western blot; 1 h).
`CCC1=C[C@@H]2CN(C1)Cc1c([nH]c3ccccc13)[C@@](C(=O)OC)(c1cc3c(cc1OC)N(C)[C@H]1[C@@](O)(C(=O)OC)[C@H](OC(C)=O)[C@]4(CC)C=CCN5CC[C@]31[C@@H]54)C2` has an inhibition of 91.1% (BT-16; cell viability, MTT; 10 µM, 72 h).
For `Cc1cc(Nc2ncc(Cl)c(Nc3ccccc3S(=O)(=O)C(C)C)n2)c(OC(C)C)cc1C1CCNCC1`, “log2 fold change” read -2.38 (CLB-BAR; phosphoproteomics LC-MS/MS, refers to: MAP1A phosphorylation; 200 nM, 60 min; relative to: untreated).
The EC50 of `COc1cnc2cccc(N3CCc4c(cc(Cn5ccnc5C)cc4-c4cn(C)nc4C(F)(F)F)C3=O)c2c1` is reported as 7970 nM (DU-4475; cell growth, inhibitor; 120 h).
`CC(C)NCC(O)c1ccc(O)c(O)c1` (stereo not shown) gave a sarcomere length of 1.59 µm (mouse ventricular cardiomyocytes; dose not given, 0.144 s).
The selectivity index of `CC1=CC(=O)c2ccccc2C1=O` is reported as 2.18 (MOLT-3; XTT; relative to: IC50 MRC-5 over IC50 MOLT-3).
The inhibition of `CC(C)C[C@H](NC(=O)[C@H](CCc1ccccc1)NC(=O)CN1CCOCC1)C(=O)N[C@@H](Cc1ccccc1)C(=O)N[C@@H](CC(C)C)C(=O)[C@@]1(C)CO1` is reported as 92.5% (BT-16; cell viability, MTT; 10 µM, 72 h).
`COc1cc([C@@H]2c3cc4c(cc3[C@@H](O[C@@H]3O[C@@H]5CO[C@@H](C)O[C@H]5[C@H](O)[C@H]3O)[C@H]3COC(=O)[C@H]23)OCO4)cc(OC)c1O`: “G2 phase cells” 61.1 ± 18.3% (HepG2 spheroids; flow cytometry; 1.7 µM, 24 h).
`O=C1CC[C@@]2(O)[C@H]3Cc4ccc(O)c5c4[C@@]2(CCN3CC2CC2)[C@H]1O5`: “[3H]deltorphin II uptake” 119% (rabbit epithelial cells; opioid peptide transport; 250 µM, 15 min, NaCl medium; relative to: control).
Under “early apoptotic cells”, `CC(C)(C)c1nc(-c2cccc(NS(=O)(=O)c3c(F)cccc3F)c2F)c(-c2ccnc(N)n2)s1` is recorded as 14.5 ± 3% (C13; annexin V/PI flow cytometry; concentration not given, 48 h; relative to: control subtracted).
With `CCn1cc(-c2cc(Cn3ccoc3=N)cc3c2CCN([C@@H](C)c2cc(OC)ccn2)C3=O)c(C(F)(F)F)n1` the EC50 was 0.537 nM (Calu-3; cell growth, inhibitor; 120 h).
`O=C(CC1NCCCC1O)Cn1cnc2cc(Br)c(Cl)cc2c1=O` (stereo not shown) has an inhibition of 94.7% (BT-16; cell viability, MTT; 10 µM, 72 h).
For `O=C(/C=C/C=C/C=C/C1CCCCC1)NC1=C[C@@](O)(/C=C/C=C/C=C/C(=O)NC2=C(O)CCC2=O)[C@@H]2O[C@@H]2C1=O`, the GI50 was 15600 nM (CAL-51; cell growth, CellTiter-Glo; 78 h).
`CCn1cc(-c2cc(Cn3ccnc3)cc3c2CCN([C@H](c2cc(OC)ccn2)C2CC2)C3=O)c(C(F)(F)F)n1` has an EC50 of greater than 30000 nM (NCI-H1437; cell growth, inhibitor; 120 h).
`Cc1cc(N2CCc3c(c(C)nn3CC34CCC(NC(=O)[C@@H]5COCCN5)(CC3)CC4)C2)c2cnn(C)c2n1` has an inhibition of 96% (human PBMC; qRT-PCR, refers to: IFI6 mRNA; 100 nM, together with: ssRNA).
`COc1ccc2c(c1)c(CC(=O)O)c(C)n2C(=O)c1ccc(Cl)cc1`: PGE2 release “inhibited” (Swiss 3T3; inhibitor, radioimmunoassay; 1 µM, together with: mastoparan 20 µM).
The inhibition of `CCCCC(CC)CNC(=N)NC(=N)NCCCCCCNC(=N)NC(=N)NCC(CC)CCCC.Cl.Cl` (stereo not shown) is reported as 94.4% (BT-16; cell viability, MTT; 10 µM, 72 h).
`CC(=O)Nc1cc(Oc2ccc3c(nc(Nc4ccc(F)cc4F)n3C)c2C)ccn1` — result for phosphorylation: “inhibited” (MHHCALL4 cells; Western blot, refers to: JAK2, STAT5, STAT3; concentration not given).
With `C=CC1=C(C)c2cc3[n-]c(cc4nc(cc5[n-]c(cc1n2)c(C)c5C=C)C(C)=C4CCC(=O)O)c(CCC(=O)O)c3C.[Zn+2]` the fold change was 1.67 (SH-SY5Y; RNA-seq, refers to: FHL2 mRNA; 5 µM, 5 h; relative to: untreated cells).
`Nc1ncnc2c1ncn2[C@@H]1O[C@H](CO)[C@@H](O)[C@H]1O` has a viability of 83.7 a.u. and 81.2 a.u. and 75.7 a.u. (unstimulated human T cells; 100 µM, 72 h; higher = more viable cells).
The fold change of `C=Cc1c2[n-]c(c1C)/C=c1\[n-]/c(c(C)c1C=C)=C\c1[n-]c(c(CCC(=O)O)c1C)/C=c1\[n-]c(c(C)c1CCC(=O)O)=C2.[Sn+4]` is reported as 1.72 (SH-SY5Y; RNA-seq, refers to: CREB5 mRNA; 5 µM, 5 h; relative to: untreated cells).
Under mRNA level, `COc1cccc2c1c(O)c(C(=O)N(C)c1ccc(C(F)(F)F)cc1)c(=O)n2C` is recorded as “decreased” (mouse bone marrow-derived macrophages; qPCR, refers to: Fizz1; concentration not given, together with: IL-4).
`Clc1nc(NCc2ccco2)c2[nH]cnc2n1` gave a ΔPSI of 0.272 (FD iPSC-derived cardiomyocytes; alternative splicing, RNA-seq, refers to: CEP78 exon chr9:78265858-78265906; unit not given; relative to: DMSO minus compound).
`CC/C(=N\NC(=O)C(C)Nc1ccccc1)c1ccc(O)c(C)c1O` (stereo not shown) gave a protein level of 1.12 ± 0.33 (SK-OV-3; Western blot, refers to: TAZ; 10 µM, 1 h, 3D gellan gum culture, unit not given; relative to: β-actin).

Excerpt of the above:
`Clc1nc(NCc2ccco2)c2[nH]cnc2n1` gave a ΔPSI of 0.272 (FD iPSC-derived cardiomyocytes; alternative splicing, RNA-seq, refers to: CEP78 exon chr9:78265858-78265906; unit not given; relative to: DMSO minus compound).
`CC/C(=N\NC(=O)C(C)Nc1ccccc1)c1ccc(O)c(C)c1O` (stereo not shown) gave a protein level of 1.12 ± 0.33 (SK-OV-3; Western blot, refers to: TAZ; 10 µM, 1 h, 3D gellan gum culture, unit not given; relative to: β-actin).
`CCn1cc(-c2cc(Cn3ccnc3)cc3c2CCN([C@H](c2cc(OC)ccn2)C2CC2)C3=O)c(C(F)(F)F)n1` has an EC50 of greater than 30000 nM (NCI-H1437; cell growth, inhibitor; 120 h).
`COc1cc(/C=C/C(=O)N2CCC=CC2=O)cc(OC)c1OC` has a mRNA level of 82.1 ± 8.3% (MDA-MB-468; quantitative RT-PCR, refers to: ANPEP; 30 µM, 8 h; relative to: untreated cells).
`O=C(CC1NCCCC1O)Cn1cnc2cc(Br)c(Cl)cc2c1=O` (stereo not shown) has an inhibition of 94.7% (BT-16; cell viability, MTT; 10 µM, 72 h).
